Assay results of several laboratories.
Compare with care: the assays were run in different laboratories. Several values in a cell are separate wells, animals, samples, runs or records. ± gives the spread as reported.
UniProt P29322, sequence (whole entry, looked up): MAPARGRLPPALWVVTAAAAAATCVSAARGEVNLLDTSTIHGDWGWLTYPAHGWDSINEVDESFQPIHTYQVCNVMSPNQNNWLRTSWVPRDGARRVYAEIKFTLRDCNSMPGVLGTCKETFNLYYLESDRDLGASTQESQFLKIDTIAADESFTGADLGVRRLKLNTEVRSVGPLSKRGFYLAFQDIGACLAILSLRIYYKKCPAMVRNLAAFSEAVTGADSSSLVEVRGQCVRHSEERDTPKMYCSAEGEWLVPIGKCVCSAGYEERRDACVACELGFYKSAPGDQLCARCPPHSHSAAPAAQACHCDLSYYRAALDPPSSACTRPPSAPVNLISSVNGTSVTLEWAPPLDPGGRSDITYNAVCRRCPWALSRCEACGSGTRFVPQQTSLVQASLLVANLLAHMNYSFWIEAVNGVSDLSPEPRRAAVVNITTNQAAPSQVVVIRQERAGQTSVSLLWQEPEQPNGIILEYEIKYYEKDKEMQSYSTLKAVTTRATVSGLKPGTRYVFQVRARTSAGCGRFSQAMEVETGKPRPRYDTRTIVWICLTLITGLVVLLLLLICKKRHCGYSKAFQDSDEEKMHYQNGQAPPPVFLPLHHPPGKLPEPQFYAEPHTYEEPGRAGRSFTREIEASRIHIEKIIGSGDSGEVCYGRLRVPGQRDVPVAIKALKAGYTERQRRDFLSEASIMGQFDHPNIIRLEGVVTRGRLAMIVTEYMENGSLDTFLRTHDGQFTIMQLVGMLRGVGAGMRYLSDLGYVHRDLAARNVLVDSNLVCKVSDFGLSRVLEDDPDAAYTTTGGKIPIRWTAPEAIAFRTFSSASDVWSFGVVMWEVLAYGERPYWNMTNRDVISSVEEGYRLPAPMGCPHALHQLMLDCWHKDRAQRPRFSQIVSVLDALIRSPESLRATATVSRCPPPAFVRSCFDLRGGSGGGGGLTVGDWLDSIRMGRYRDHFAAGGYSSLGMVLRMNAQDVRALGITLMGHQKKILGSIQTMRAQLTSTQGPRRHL

`CC[C@H](C)[C@H](NC(=O)[C@H](C)NC(=O)[C@H](CCCCN)NC(=O)[C@H](CCCCN)NC(=O)[C@@H](N)CCCNC(=N)N)C(=O)N[C@@H](CCCCN)C(=O)N[C@@H](CC(C)C)C(=O)N[C@H](C(=O)N[C@@H](CCCCN)C(=O)N[C@@H](CCCCN)C(=O)N[C@@H](CC(C)C)C(=O)N[C@H](C(=O)N[C@@H](CCCCN)C(=O)N[C@@H](CCCCN)C(=O)N[C@@H](CC(C)C)C(=O)N[C@@H](CCCCN)C(=O)N[C@@H](CCCCN)C(=O)N[C@@H](C)C(=O)N[C@@H](CC(C)C)C(=O)N[C@@H](CCCCN)C(=O)O)C(C)C)C(C)C` gave a cell growth of 82.6% and 77.5% and 73.7% (HeLa; MTT; 16 mg/L; relative to: untreated).
`O=C1NC2(CC2)COc2ncc(F)cc2[C@H]2COCCN2c2ccn3ncc1c3n2`: “organ-to-brain weight ratio” 22.9 ± 4.81% (Sprague-Dawley rat, female, uterus; oral, 2.5 mg/kg/day, 4 weeks, end of treatment).
`CC(=O)Oc1ccc(/C=C/C(=O)Oc2ccc(C(F)(F)F)c(C(F)(F)F)c2)cc1OC(C)=O` gave a CC50 of 84.5 µM (HaCaT; cell growth or viability, MTT; 24 h).
The viability of `CNC(=O)C[C@H](Cc1ccncc1)NC(=O)[C@@H](Cc1cccc(Br)c1)NC(=O)[C@@H](N)Cc1cccc(F)c1` is reported as 0.963 and 1.02 (Huh-7-ACE2; CellTiter-Glo; 0.0122 µM, 48 h, unit not given; relative to: DMSO).
Under “minimum haemolytic concentration”, `CC[C@H](C)[C@H](NC(=O)[C@@H](NC(=O)[C@H](CCCCN)NC(=O)[C@H](CCCCN)NC(=O)[C@@H](NC(=O)[C@H](Cc1c[nH]c2ccccc12)NC(=O)[C@H](CCCCN)NC(=O)[C@H](CCCCN)NC(=O)[C@H](CC(C)C)NC(=O)[C@H](CCCCN)NC(=O)[C@H](CCCCN)NC(=O)[C@@H](N)C(C)C)[C@@H](C)CC)C(C)C)C(N)=O` is recorded as over 256 µM (sheep red blood cells; 10% haemolysis; 1 h, 37 °C).
`CS(C)(=O)=Nc1ccc(-c2ccc(-c3nc4cc(O[C@@H]5CO[C@H]6[C@@H]5OC[C@H]6O)[nH]c4cc3F)cc2)cc1` gave an inhibition of 2% (Ephrin type-A receptor 8 (EPHA8, Homo sapiens, UniProt P29322); enzyme activity, inhibitor; 10 µM).
The hemolysis of `CC[C@H](C)[C@H](NC(=O)[C@H](CCCCN)NC(=O)[C@H](CC(N)=O)NC(=O)CNC(=O)[C@@H](NC(=O)[C@H](C)NC(=O)[C@H](CCCNC(=N)N)NC(=O)[C@H](CC(C)C)NC(=O)[C@H](CCCCN)NC(=O)[C@H](CCCCN)NC(=O)[C@H](CCCCN)NC(=O)[C@H](C)NC(=O)[C@H](CCCCN)NC(=O)[C@@H]1CSSC[C@H](NC(=O)[C@H](CCCNC(=N)N)NC(=O)CN)C(=O)N[C@@H](CC(N)=O)C(=O)N[C@@H](CC(C)C)C(=O)N[C@@H](CC(C)C)C(=O)N1)C(C)C)C(=O)N[C@@H](CCCCN)C(=O)N[C@@H](CCC(=O)O)C(=O)N[C@H](C(=O)N[C@@H](CCCCN)C(=O)N[C@@H](CC(N)=O)C(=O)N[C@H](C(=O)N[C@H](C(=O)N[C@@H](Cc1ccccc1)C(=O)N[C@@H](CC(N)=O)C(=O)N[C@@H](CCCNC(=N)N)C(=O)O)C(C)C)C(C)C)[C@@H](C)CC` is reported as 3.16 ± 0.67% (human erythrocytes; 40 µM, 30 min, 37 °C; relative to: Triton X-100).
For `O=C1NC(=O)c2c1c1cc(F)c[n+]3c1c1c2c2cc(O)ccc2[n]1[Ru-4]312([N]=C=S)[S+]3CC[S+]1CC[S+]2CC3` (stereo not shown), the remaining activity was 94% (Protein kinase C alpha type (PRKCA, Homo sapiens, UniProt P17252); enzyme activity; 100 nM, human enzyme, together with: 10 µM ATP; relative to: untreated).
`CNC(=O)CC1CN(C(=O)c2ccc(C(F)(F)F)cn2)CCN1C(=O)c1cccnn1` (stereo not shown) has a viability of 0.971 and 0.827 and 0.997 (Huh-7-ACE2; CellTiter-Glo; 0.0122 µM, 48 h, unit not given; relative to: DMSO).
`CC(C)(C)C(=O)OCOP(=O)(OCOC(=O)C(C)(C)C)C1CCCN(O)C1=O` (stereo not shown) gave a GI50 of 0.561 µM (NCI-H460).
`CC(C)Cc1ccc(C(C)C(=O)[O-])cc1.CC(C)Cc1ccc(C(C)C(=O)[O-])cc1.[Cu+2].c1ccncc1.c1ccncc1` (stereo not shown) has an IC50 of over 100 µM (MCF7; cytotoxicity, MTT; 48 h).
For `CC[C@H](C)[C@H](NC(=O)CN)C(=O)N[C@@H](Cc1c[nH]c2ccccc12)C(=O)N[C@@H](CCCCN)C(=O)N1CCC[C@H]1C(=O)N[C@H](C(=O)N[C@@H](Cc1ccccc1)C(=O)N[C@H](C(=O)N[C@@H](Cc1ccc(O)cc1)C(=O)N[C@@H](CC(C)C)C(=O)N[C@@H](C)C(=O)N[C@H](C(=O)N1CCC[C@H]1C(=O)N[C@H](C(=O)N[C@@H](Cc1c[nH]cn1)C(=O)N[C@@H](Cc1ccccc1)C(=O)N[C@@H](CCCCN)C(=O)N[C@@H](Cc1ccccc1)C(=O)O)[C@@H](C)CC)[C@@H](C)O)[C@@H](C)O)[C@@H](C)CC`, the IC50 was 39.5 µM (HUVEC; cytotoxicity, MTT; 24 h, 37 °C).
For `CCN(CCCCOc1ccc(CCC(=O)N2CCC(Cc3ccccc3)CC2)cc1OC)Cc1ccccc1`, the efflux ratio was 1.67 (Caco-2 monolayer; 10 µM, 120 min).

Excerpt of the above:
`CC[C@H](C)[C@H](NC(=O)[C@H](C)NC(=O)[C@H](CCCCN)NC(=O)[C@H](CCCCN)NC(=O)[C@@H](N)CCCNC(=N)N)C(=O)N[C@@H](CCCCN)C(=O)N[C@@H](CC(C)C)C(=O)N[C@H](C(=O)N[C@@H](CCCCN)C(=O)N[C@@H](CCCCN)C(=O)N[C@@H](CC(C)C)C(=O)N[C@H](C(=O)N[C@@H](CCCCN)C(=O)N[C@@H](CCCCN)C(=O)N[C@@H](CC(C)C)C(=O)N[C@@H](CCCCN)C(=O)N[C@@H](CCCCN)C(=O)N[C@@H](C)C(=O)N[C@@H](CC(C)C)C(=O)N[C@@H](CCCCN)C(=O)O)C(C)C)C(C)C` gave a cell growth of 82.6% and 77.5% and 73.7% (HeLa; MTT; 16 mg/L; relative to: untreated).
